Published values gathered from unrelated publications.
Protocols differ between the studies behind these lines. Values joined by “and” are separate records of one study, mostly repeats; a detail may differ. Numbers after ± are the reported error.

Cc1cc2c(C(=O)Cc3ccccc3)c(O)c(O)cc2c(O)c1-c1c(C)cc2c(C(=O)Cc3ccccc3)c(O)c(O)cc2c1O — EC50 (PC3-ML; ATP-lite viability; 72 h): 4.6 µM
CC(C)[C@@H]1NC(=O)[C@H](CO)NC(=O)[C@H](CO)NC(=O)[C@H](CO)N(C)C(=O)[C@H](CC(=O)O)NC(=O)[C@H](CO)NC(=O)[C@H](Cc2ccccc2)NC(=O)CSC[C@@H](C(=O)NCC(N)=O)NC(=O)[C@H](CC(N)=O)NC(=O)[C@H](CCCNC(=N)N)NC(=O)[C@H](Cc2ccc(-c3ccccc3)cc2)NC(=O)[C@H](Cc2ccc(-c3ccccc3)cc2)NC(=O)[C@H](CC(N)=O)NC(=O)[C@@H]2CCCN2C1=O — EC50 (SJSA-1; cell growth or viability): > 30 µM
CCOC(=O)c1ccc(NC(=S)Nc2ccc3c(c2)C(C)(C)CC(C)(C)S3)cc1 — EC50 (786-O; cell growth, MTS; 48 h): 7.2 ± 0.72 µM
CSCC[C@H](NC(=O)[C@@H](NC(=O)[C@H](CCSC)NC(=O)[C@H](Cc1ccc(O)cc1)NC(=O)[C@H](CCCCN)NC(=O)[C@@H](N)Cc1c[nH]c2ccccc12)C(C)C)C(N)=O — EC50 (human neutrophils; calcium mobilisation, agonist; without probenecid): 0.0016 µM
CCCCCCCCC1(CCCCCCCC)c2cc(-c3cc4[n+]5c(c3)-c3cccc[n+]3[Ir-3]536([c]5c(c(C)cc(C)c5-c5cccc[n+]53)-c3cccc[n+]36)[n+]3ccccc3-4)ccc2-c2ccc(-c3cc4[n+]5c(c3)-c3cccc[n+]3[Ir-3]536([c]5c(c(C)cc(C)c5-c5cccc[n+]53)-c3cccc[n+]36)[n+]3ccccc3-4)cc21.F[P-](F)(F)(F)(F)F.F[P-](F)(F)(F)(F)F.F[P-](F)(F)(F)(F)F.F[P-](F)(F)(F)(F)F — EC50 (SK-MEL-28; cell viability, resazurin; 16 h plus 48 h, dark): ~50 µM and 49.9 µM
CC(C)[C@@H](C)/C=C/[C@@H](C)[C@H]1CC[C@@H]2[C@]1(C)CC[C@H]1[C@]23C=C[C@]2(C[C@@H](OC(=O)CCCC(=O)O)CC[C@]12C)OO3 — EC50 (SUM149; cell growth or viability, ATP luminescence): 5 µM
Cc1sc2c(c1C)C(c1ccc(Cl)cc1)=N[C@@H](CC(=O)OC(C)(C)C)c1nnc(C)n1-2 — EC50 (HD-MB03): > 2 µM
F[P-](F)(F)(F)(F)F.F[P-](F)(F)(F)(F)F.[Ru+2].c1ccc(-c2ccccn2)nc1.c1ccc(-c2ccccn2)nc1.c1csc(-c2ccc(-c3ccc(-c4cc5cccnc5c5ncccc45)s3)s2)c1 — EC50 (SK-MEL-28; cell viability, resazurin; 16 h drug-to-light interval, with: red light 625 nm, 100 J/cm2): 2.03 µM and ~2 µM
Cc1cccc(O[C@H]2CCC[C@@H](C(C)CNCc3ccncc3)C2)c1 (relative stereo) — EC50 (MC65 Tet-Off; protection from amyloid beta toxicity): 0.0046 ± 0.0006 µM
F[P-](F)(F)(F)(F)F.F[P-](F)(F)(F)(F)F.[Ru+2].c1ccc(-c2ccccn2)nc1.c1ccc(-c2ccccn2)nc1.c1csc(-c2cc3cccnc3c3ncccc23)c1 — EC50 (SK-MEL-28; cell viability, resazurin; 16 h drug-to-light interval, with: red light 625 nm, 100 J/cm2): > 300 µM
CSCC[C@H](NC(=O)[C@H](Cc1ccc(O)cc1)NC(=O)[C@H](CCCCN)NC(=O)[C@@H](N)Cc1c[nH]c2ccccc12)C(=O)N[C@H](C(=O)N[C@H](CCSC)C(N)=O)C(C)C — EC50 (human neutrophils; calcium mobilization, agonist): 0.001 µM

Some of these lines once more:
F[P-](F)(F)(F)(F)F.F[P-](F)(F)(F)(F)F.[Ru+2].c1ccc(-c2ccccn2)nc1.c1ccc(-c2ccccn2)nc1.c1csc(-c2cc3cccnc3c3ncccc23)c1 — EC50 (SK-MEL-28; cell viability, resazurin; 16 h drug-to-light interval, with: red light 625 nm, 100 J/cm2): > 300 µM
